Results from different studies.
Several values in a cell are separate wells, animals, samples, runs or records. ± gives the spread as reported.

`O=c1ccn([C@@H]2O[C@H](CO)[C@@H](O)[C@H]2O)c(=O)[nH]1`: “T cell proliferation” 24.3% and 17% and 34.4% and 31.4% and 12.5% (activated human T cells; human; 31.6 nM).
With `CC/C(=N\NC(=O)NCc1cccc(O)c1)c1ccc(O)c(C)c1O` the protein level was 0.65 ± 0.52 (SK-OV-3; Western blot, item: LATS; 10 µM, 6 h, 3D gellan gum culture, unit not given; baseline: β-actin).
Under “Gb3 accumulation reduction”, `Clc1nc(NCc2ccco2)c2[nH]cnc2n1` is recorded as 15.7% (iPSC-derived cardiomyocytes, GLA mutant; 30 µM, 72 h; baseline: untreated).
`CCCCCCCCCCCCCCCCCCOc1ccc(CC(=O)OCC[N+]2(C)CCCCC2)cc1`: “mean growth inhibition” 7.19% (NSCLC panel (nine cell lines); 10 µM).
`C=CCN1CC[C@]23c4c5ccc(O)c4O[C@H]2C(=O)CC[C@@]3(O)[C@H]1C5` — result for G-protein activity: “no effect” (CHO-WT cells; cell membranes without MOR; 10 µM, compound alone, basal).
`CCCCCCCCCCCCCCCCCCOc1ccc(CC(=O)OCC[N+](CC)(CC)CC)cc1` — result for “mean growth inhibition”: 17.9% (NSCLC panel (nine cell lines); 10 µM).
`CCCCN1C[C@H](O)[C@@H](O)[C@@H](O)[C@H]1CO` has an IC50 of 4600 nM (sample C patient fibroblasts; Gb3 level lowering, LC-MS/MS, item: Gb3 d18:1/16:0; 216 h).
`COc1ccc(C(=O)C2CCN(CC(=O)N(Cc3nc4c(c(=O)[nH]3)COCC4)CC3CC3)CC2)cc1`: inhibition “inhibited” (HEK293 STF; β-catenin stabilisation, immunoblot; 2 µM, with: Wnt3a conditioned medium).
With `Cn1c(Nc2nc3ccc(C(F)(F)F)cc3s2)nc2cc(C(=O)NCCOCCO)ccc21` the fold change was 4.32 (SH-SY5Y; RNA-seq, item: INSYN2B mRNA; 5 µM, 5 h; baseline: untreated cells).
`COc1c(C)c(OC(C)=O)c(C)c(O)c1C(=O)/C=C/c1ccccc1` has a selectivity index of 1.09 (SH-SY5Y; SRB; baseline: normal over SH-SY5Y IC50).
Under “mean neuron degeneration”, `C=CC(=O)N1[C@@H](c2ccc3c(c2)OCO3)c2[nH]c3ccccc3c2C[C@H]1C(=O)NC` is recorded as 51.5% (rat DRG neurons; 3.333 µM, 48 h, with: vincristine 40 nM).
With `CCn1cc(-c2cc(Cn3ccnc3)cc3c2CCN([C@H](c2cc(OC)ccn2)C2CC2)C3=O)c(C(F)(F)F)n1` the EC50 was > 30000 nM (DLD-1; cell growth, inhibitor; 120 h).
`Nc1ccccc1NC(=O)c1ccc(CNC(=O)OCc2cccnc2)cc1` has an apoptotic cells of ~60% (A2780cisR; flow cytometry, item: subG1 nuclei; concentration not given).
For `COc1ccc(-n2nc(C(C)=O)s/c2=N\N=C(/C)c2ccc(NC(=O)c3ccc(C)cc3)cc2)cc1`, the toxicity was 88.1% (HepG2; 2.5 µM).
For `Nc1cccc2c1C(=O)N(C1CCC(=O)NC1=O)C2=O` (centres unmarked), “surface marker level” read 155% (RPMI-8226; flow cytometry, item: CD275; concentration not given; baseline: comparator compound alone).
With `Cc1nc(NC(=O)N2CCC[C@H]2C(N)=O)sc1-c1ccnc(C(C)(C)C(F)(F)F)c1` the Hill coefficient was 0.747 (SNU-1076; cell growth, CellTiter-Glo; 120 h).
For `CCCCCCCC(=O)Oc1c(C)c(O)c(C(=O)/C=C/c2ccccc2)c(OC)c1C`, the selectivity index was 1.39 (SH-SY5Y; SRB; baseline: normal over SH-SY5Y IC50).
With `COc1cc2ncn(-c3cc(OCc4ccccc4C(F)(F)F)c(C(N)=O)s3)c2cc1OC` the cell growth was 112% (SNU-1040; 330 nM, 3 days, 100% DMSO; baseline: vehicle).
Under “normalized enrichment score”, `O=c1[nH]nc(OCCCc2ccc(Cl)cc2)c(NCc2cccnc2)c1Br` is recorded as 2.6 (HEK-293T; RNA-seq GSEA, item: HALLMARK_UNFOLDED_PROTEIN_RESPONSE; concentration not given; direction not given).
For `O=C(C[C@@H](C(F)F)n1ccc(F)n1)N1CCC(O)(Cn2cnc3c(cnn3-c3ccc(F)cc3)c2=O)CC1`, the viability was 95.2% (CHP-212 USP7 V517F knock-in clone; SRB; 0.02744 µM).
For `Cn1cc(Nc2nccc(-c3ccc4c(c3)CN(C3COC3)CC[C@H]4NC(=O)c3cn(C(C)(C)C)nn3)n2)cn1`, “number of upregulated genes” read 44 (human B cells; 100 nM, 64 h, non-stimulation-regulated genes, with: CD40L, anti-IgM, IL-4).
For `CCCCCN1C[C@H](O)[C@@H](O)[C@H](O)[C@@H]1CO`, the IC50 was 794 nM (Sandhoff disease patient fibroblasts; glycosphingolipid lowering, LC-MS/MS, item: GM3 d18:1/22:0).
`Nc1ncnc2c1ncn2[C@@H]1O[C@H](CO)[C@@H](O)[C@H]1O` — result for “log2 fold change”: 7.6 and 8.5 and 9.1 (activated human T cells; item: orotate; 10 µM; baseline: DMSO).
`COc1cnc2cccc(N3CCc4c(cc(Cn5ccnc5C)cc4-c4cn(C)nc4C(F)(F)F)C3=O)c2c1` has an EC50 of 1860 nM (SNU1; cell growth, inhibitor; 120 h).
`CCCCc1nc(Cl)c(CO)n1Cc1ccc(-c2ccccc2-c2nn[nH]n2)cc1` — result for “log2 fold change”: -1.71 (human PBMC; RNA-seq, item: LRP3 mRNA; 10 µg/mL, 24 h; baseline: untreated control).
`Cc1nn(-c2nc3c(F)cc(F)cc3s2)c(O)c1C(c1ccc(C(F)(F)F)cc1)c1c(C)nn(-c2nc3c(F)cc(F)cc3s2)c1O` has an inhibition of -12.7% and -0.029% and -2.54% and -10.7% and -3.12% and 1.45% (THP1-Dual; IFN luciferase reporter; 0.625 µM, with: HT-DNA).
`COc1cc2c(cc1OC)/C(=C/CCCCCCOCc1ccccc1)C=C2C(F)(F)F`: Nrf2 stabilization “no effect” (MM1.S bortezomib-resistant; Western blot; 0.5 µM, 8 h).
`[Cl-].[Cl-].[Os+2].c1cnc2c(c1)ccc1cccnc12.c1cnc2c(c1)ccc1cccnc12.c1cnc2c(c1)ccc1cccnc12` gave a TGI of 275000 nM (SK-MEL-28; visible light, 1% O2 hypoxia).
With `Cc1nc(Nc2ncc(C(=O)Nc3c(C)cccc3Cl)s2)cc(N2CC[C@H](O)C2)n1` the inhibition was 74% (A3/KAW; cell proliferation, CellTiter-Glo; 10 µM, 72 h).
`CCn1cc(-c2cc(Cn3ccoc3=N)cc3c2CCN([C@@H](C)c2cc(OC)ccn2)C3=O)c(C(F)(F)F)n1` gave an EC50 of 367 nM (HLF; cell growth, inhibitor; 120 h).
For `CCc1cnc(N2CCC(c3nc(COc4ccc(-n5cnnn5)cc4)cs3)CC2)nc1`, “normalized enrichment score” read -1.4 (HEK-293T; RNA-seq GSEA, item: HALLMARK_INTERFERON_ALPHA_RESPONSE; concentration not given; direction not given).
For `CC1(C)CCC(CN2CCN(c3ccc(C(=O)NS(=O)(=O)c4ccc(NCC5CCOCC5)c([N+](=O)[O-])c4)c(Oc4cnc5[nH]ccc5c4)c3)CC2)=C(c2ccc(Cl)cc2)C1`, the necrotic cells was 0.1% (KCL-22; annexin V/PI flow cytometry, item: annexin V-/PI+; 3.2 µM, 24 h).
For `Cc1n[nH]c(C)c1CSc1ccc(O)cc1`, the selectivity index was 1.5 (U-937; cytotoxicity; baseline: IC50 HEK293 over IC50 U-937).
`Cc1c(C(=O)O)ccc2c3n(nc12)[C@@H]1[C@H](C3)N(CC2CC2)[C@@]2(C(=O)Nc3cc(Cl)ccc32)[C@H]1c1cccc(Cl)c1F` has a GI50 of 0.72 nM (LS180; cell growth, alamarBlue; unbound).
The GI50 of `O=C(/C=C/C=C/C=C/C1CCCCC1)NC1=C[C@@](O)(/C=C/C=C/C=C/C(=O)NC2=C(O)CCC2=O)[C@@H]2O[C@@H]2C1=O` is reported as 17400 nM (SK-MEL3; cell growth, CellTiter-Glo; 78 h).
`Nc1cccc2c1CN(C1CCC(=O)NC1=O)C2=O` (centres unmarked) gave a viability of 80% (bone marrow CD138+ myeloma cells; XTT; 1 µM, mean of three patients).
Under “log2 fold change”, `Cc1cc(Nc2ncc(Cl)c(Nc3ccccc3S(=O)(=O)C(C)C)n2)c(OC(C)C)cc1C1CCNCC1` is recorded as -4.17 (CLB-BAR; phosphoproteomics LC-MS/MS, item: IRS2 phosphorylation; 200 nM, 60 min; baseline: untreated).
For `COc1cc(C(=O)c2nc(-c3cccc4[nH]ccc34)c[nH]2)cc2c1OCO2`, the resistance index was 0.4 (PC-3/TxR paclitaxel-resistant; baseline: IC50 PC-3/TxR over IC50 PC-3).
For `CC(=O)c1nn(-c2ccc(Cl)cc2)/c(=N/N=C(\C)c2ccc(NC(=O)c3ccc(C)cc3)cc2)s1`, the viability was 17.9% (MCF7; 1.25 µM).
For `O=C1NC(=O)/C(=C/c2ccc3nccc(-c4ccncc4)c3c2)S1`, the cell growth was 91% (SNU-1040; 0.33 µM, 72 h, 100% DMSO; baseline: vehicle).
Under “log2 fold change”, `Cn1cc(-c2ccc(-c3cncc(Cl)c3N3CCC4(CCNC4=O)CC3)cc2)cn1` is recorded as -2.57 (COLO 205; gene expression, microarray, item: CORO1A mRNA; concentration not given, 2 h; baseline: untreated cells).
For `C=CC[C@@H]1c2ccc(OC)c(OC)c2CN2CCc3cc4c(cc3[C@H]12)OCO4`, the normalised current was 0.468 and 0.603 and 0.517 (HEK293 transfected; ATP-evoked current, whole-cell patch clamp; 30 µM, mutant K297R).
For `C[C@H]1[C@@H](O)O[C@@H]2O[C@@]3(C)CC[C@H]4[C@H](C)CC[C@@H]1[C@@]24OO3`, the necrotic cells was 0% (KCL-22; annexin V/PI flow cytometry, item: annexin V-/PI+; 3.2 µM, 24 h).
Under “T cell proliferation”, `Nc1ncnc2nc(-c3ccc(N4CCOCC4)nc3)cc(-c3cccc(Br)c3)c12` is recorded as 1.9% and 0.7% and 0% (activated human T cells; human; 3.16 nM).
The mRNA level of `COc1cc(/C=C/C(=O)N2CCC=CC2=O)cc(OC)c1OC` is reported as 95.9 ± 6.6% (MDA-MB-468; qRT-PCR, item: Skp1; 30 µM, 6 h; baseline: time zero).
The plating efficiency of `Cc1cnc2ccc3c(c2n1)N1CCC(O)N=C1N3C` (centres unmarked) is reported as 0% (BALB/c 3T3; colony formation; 100 µM).
`CC(C)NCC(O)c1ccc(O)c(O)c1` (centres unmarked) has a sarcomere length of 1.8 µm (mouse ventricular cardiomyocytes; dose not given, 0.307 s).
